# Measured values gathered from unrelated publications.
# Each numbered part is a random draw from the data of one study; scales do not carry over between parts. Positions count from the first letter of the parent shown.

# Set 1 — target: CCNB1, cyclin fold, Cln2 fusion (human); method: yeast growth competition, sequencing; matrix: yeast; setting: weak parent motif; baseline: not given; reading: higher = stronger binding
# Starting sequence: FZR1 docking peptide (human); QDYERRLLRQIVI
Variant,normalised enrichment score
Q10A,0.0717
L7A,0.877
R5A,1.19
I13A,0.0227
Y3A,0.39
E4A,0.256
R5K,0.634

# Set 2 — method: RNA Bind-n-Seq; molecule type: RNA; matrix: in vitro; tested at: 365 nM; baseline: no-protein control; reading: higher = stronger binding
# Target: RNA binding protein fox-1 homolog 2, RRM domain, GST-SBP tag (RBFOX2, Homo sapiens, UniProt O43251-10, residues 100-194)
# Setting: natural RNA segment, single round, ends assumed
# Construct (chain): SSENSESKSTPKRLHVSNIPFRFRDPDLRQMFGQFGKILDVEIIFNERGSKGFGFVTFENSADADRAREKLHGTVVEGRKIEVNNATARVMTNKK
Sequence,RBNS enrichment (R)
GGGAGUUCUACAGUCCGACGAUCACAGUGAGCUCAGAAAUAAAAACUCCAUUUUGAGACAUUCAGAAUGUCCCAACAUUACGACAACAUUUUUUUUUUUUUUUUCUAAUCCAGUCCAGGUUGGAAAGAAGUCUUGGAAUUCUCGGGUGCCAA,0.412
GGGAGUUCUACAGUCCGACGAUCAGUUGCUAUGCACCAAAUUUUGAUGCCUUCUAAAUACCUUGAUGCCUGUAGCACUAGAAAUGCUUUCCUAUUUAAAAUAAACAUUAAAUUUUAAAAUAGAGCUUUGUAUAUGGAAUUCUCGGGUGCCAA,0.759
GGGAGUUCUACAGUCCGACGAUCCCUCUGUUUUCAAAUCUGUAAAAUGGGCAAUAAGACUAGAUGAUUUGUAUAUAGCCCAAUGCAUCUCUGGAACUCUGUCUAAACACCAGCCAUCUACUUGGAAUGGGCCCUGGAAUUCUCGGGUGCCAA,0.801
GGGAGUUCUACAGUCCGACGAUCCCAGUACUGGGAAACAUGGAAUGUGGCAAACUGUCCCACACUCCAAGCCAUUCUCCAAGGGGGCCUGGCACAGUAAGCACUUCAAGCAUGAAUUGGGUAAGCUGGUUUGUUGGAAUUCUCGGGUGCCAA,3.02
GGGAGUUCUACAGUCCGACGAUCCUGUGGCCUCCUUGUGGUGGUCCCUCUUCCCACGUGCAGCCCUGUUGGGAAGAAAGGAAGAAAACAGGUCCCUCCAGGGGUGCUGCUGCCUAAGCCACCCACAUAAGUACUGGAAUUCUCGGGUGCCAA,0.368
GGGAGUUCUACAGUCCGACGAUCAGCCUUGGACUACACACAUUUCAAACAAAACCAAAUGCUGUCGUCGACAAGCCAGCACAGGCGAAGUGAUGGUUCCCACAGCACCCCCAAUAAAAACUGGGAUUUUGAAUUGGAAUUCUCGGGUGCCAA,0.33
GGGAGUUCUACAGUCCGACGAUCCCAACAGUGUAAAUGCAUAGCAGUGUUUAUCUGCAUGAGAACUAUGCACUAAUCUAUCUGAAGAAAAAAACUAUAUCAACUUUGGUAUCUACUUUCCGUUUACUUCAAUCUGGAAUUCUCGGGUGCCAA,0.615
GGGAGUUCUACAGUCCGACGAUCCAGAGCCGGUGGCAGAAGCAGUGGCCUGGCCCGGCUCUGGAGCCCAGCUUGUCUGGGCCCUGCCCAAGUUCCGCCAGGGAACCCAGCCCCAGCUCAAGUGCCGCCCCCUCUGGAAUUCUCGGGUGCCAA,0.347
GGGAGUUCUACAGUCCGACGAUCUCCCAGGAUCCCCUUGUCCCUGGAGUAGGGACUAACUAUAGCACAAAGUAAUAUGUGCCAAUGCUAUUUGUGAAAUGUUUGGUCUUUCUAAACGACUAAAGGAUUUGUUGUGGAAUUCUCGGGUGCCAA,0.781
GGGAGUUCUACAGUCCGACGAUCUCCUCUCUCCUCCUCCUGGCUUUUGGAAAGGCUUGGCUGUGUUGGGGAGUCUCUCUUAGCCCUUUCAGGAAUUUCUGUUCAGGCUUCCUCCUCCUCAUCAGCUAUUUUACUGGAAUUCUCGGGUGCCAA,0.474
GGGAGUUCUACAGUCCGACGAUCCUCCCAUGUGGAGUAUCAGUCGCUCACAGGACUUGGAUCUGAAGCACAGUAAACGCAAGAGGGGAUUUGUGUACAAAAGGCAAAAAAAGUAUUUGAUAUCAUUGUACAUAUGGAAUUCUCGGGUGCCAA,0.431
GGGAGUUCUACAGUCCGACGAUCAAAAACUCGUUCGGAGAAAAGACAGCUUCUGCCUUCCCUACCAGGCGGACAGGGUACUCACUGUGCCGACGUGAGCAGACACAGCCAGAGGCUCAAGUGCCCUUGCCGAGUGGAAUUCUCGGGUGCCAA,0.251

# Set 3 — method: universal PBM; molecule type: double-stranded DNA, one strand shown; matrix: in vitro; tested at: 600 nM; reading: higher = stronger binding
# Target: Sal-like protein 4, full length isoform A (SALL4, Homo sapiens, UniProt Q9UJQ4, residues 1-1053)
# UniProt Q9UJQ4, sequence (whole entry, looked up): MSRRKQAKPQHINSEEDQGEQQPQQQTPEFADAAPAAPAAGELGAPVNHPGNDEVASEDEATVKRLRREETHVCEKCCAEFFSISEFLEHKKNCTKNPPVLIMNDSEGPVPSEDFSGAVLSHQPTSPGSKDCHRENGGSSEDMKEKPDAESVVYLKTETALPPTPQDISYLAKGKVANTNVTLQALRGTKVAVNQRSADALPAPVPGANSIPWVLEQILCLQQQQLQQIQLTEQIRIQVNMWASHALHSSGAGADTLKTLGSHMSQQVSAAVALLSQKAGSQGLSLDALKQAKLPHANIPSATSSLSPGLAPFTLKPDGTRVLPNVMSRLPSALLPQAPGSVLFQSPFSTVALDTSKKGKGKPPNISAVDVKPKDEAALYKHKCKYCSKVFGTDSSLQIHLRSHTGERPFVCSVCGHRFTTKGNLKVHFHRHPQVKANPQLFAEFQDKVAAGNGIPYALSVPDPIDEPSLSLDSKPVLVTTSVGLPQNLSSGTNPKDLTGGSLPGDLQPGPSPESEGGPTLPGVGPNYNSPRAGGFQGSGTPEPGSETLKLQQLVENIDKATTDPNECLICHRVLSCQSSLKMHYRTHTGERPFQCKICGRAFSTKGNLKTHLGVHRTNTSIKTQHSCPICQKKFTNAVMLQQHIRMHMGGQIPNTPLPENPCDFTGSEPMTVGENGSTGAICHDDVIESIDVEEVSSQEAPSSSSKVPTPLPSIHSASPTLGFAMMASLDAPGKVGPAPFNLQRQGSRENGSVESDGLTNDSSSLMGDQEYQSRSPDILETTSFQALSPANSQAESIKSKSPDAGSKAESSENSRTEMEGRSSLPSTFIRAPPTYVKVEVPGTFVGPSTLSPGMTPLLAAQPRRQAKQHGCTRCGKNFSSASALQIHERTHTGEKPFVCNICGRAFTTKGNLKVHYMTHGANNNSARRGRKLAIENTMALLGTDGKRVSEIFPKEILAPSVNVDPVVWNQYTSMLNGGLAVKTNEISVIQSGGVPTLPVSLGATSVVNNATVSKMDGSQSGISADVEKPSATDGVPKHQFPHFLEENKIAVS
# Setting: 8-mer, flanks averaged, mean of replicates
Sequence,E-score
ACTATGCT,0.249
ACAGTAAC,0.0974
CGAGAGAC,-0.111
CAGTGGAC,-0.127
AGATATCC,0.135
GATAGAAA,0.109
CCAATGAC,-0.00231
CTTGGACC,-0.302
GATCAACA,0.105
CGTCTGTA,-0.0239
ACGAACCG,-0.207
ACTACCGG,-0.272
ACCGCATA,0.163
AGCGTTTA,-0.0652
TCCTATAA,0.26
ACGAGACA,-0.0919
CCGATACC,-0.253
CGGATGTA,0.0121
GCCGCTAC,-0.358
CCAATAAC,0.267
CATAGTAG,0.115
CTCCACGA,-0.147
GGGAGACC,-0.342
ATTTTGAC,0.24
AGTAAGGA,0.000875

# Set 4 — method: aptamer microarray, sandwich; molecule type: DNA with 2'F-ANA; matrix: in vitro; tested at: 200 nM; with: Cy3 exosite-II aptamer, 400 nM; reading: higher = stronger binding; sequence: GGTTGGTGTGGTTGG
# Target: Prothrombin, mature alpha-thrombin (F2, Homo sapiens, UniProt P00734)
# Setting: whole 15-mer aptamer, many near background
Modification,mean fluorescence intensity
2'F-ANA at 1 7 8 9 13 14,57.9 a.u.
2'F-ANA at 1 3 4 9 10 11 12 13,69.3 a.u.
2'F-ANA at 3 4 5 14,50.9 a.u.
2'F-ANA at 5 9 10 11 14,46.7 a.u.
2'F-ANA at 2 4 6 8 9 11 12 14 15,98.3 a.u.
2'F-ANA at 1 2 3 5 7 8 9 11 14 15,42.4 a.u.
2'F-ANA at 5 6 7 8 12 13 15,193 a.u.
2'F-ANA at 3 8 10 11 15,492 a.u.
2'F-ANA at 3 8 10 12 13 14 15,410 a.u.
2'F-ANA at 1 2 4 7 8 9 11 12 13,169 a.u.
2'F-ANA at 3 4 6 10 11 13 14 15,147 a.u.
2'F-ANA at 2 4 5 8 10 12,58.7 a.u.
2'F-ANA at 3 4 6 7 8 10 12 13 14 15,160 a.u.
2'F-ANA at 2 3 4 6 7 9 10 13 14 15,207 a.u.
2'F-ANA at 1 2 3 4 6 9 10 11 15,62.6 a.u.
2'F-ANA at 1 4 6 12 13 14 15,57 a.u.
2'F-ANA at 2 3 4 6 7 8 10 15,206 a.u.
2'F-ANA at 3 4 5 6 7 9 12 13 15,123 a.u.
2'F-ANA at 1 6 7 8 9 11 12 14 15,73.8 a.u.
2'F-ANA at 1 3 4 9 10 13,59 a.u.
2'F-ANA at 3 4 8 9 10 11 13 14 15,171 a.u.

# Set 5 — method: RNA Bind-n-Seq; molecule type: RNA; matrix: in vitro; tested at: 200 nM; setting: whole 134-nt RNA, ends assumed; with: 150 mM LiCl; baseline: input library; reading: higher = stronger binding; all molecules: 7-deaza-guanosine replaces G
# Target: Fragile X messenger ribonucleoprotein 1, C-terminal low-complexity region (Fmr1, Mus musculus, UniProt P35922)
Sequence,log2 enrichment
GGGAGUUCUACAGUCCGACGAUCUCCUGUGCUACACAUCGUAUGUACCGAAUCAAACCCCCCCAAAUUUUUAAACCCCCAAAAAAGUAUUAUGUUACGCCGUUCGGAUCUGCAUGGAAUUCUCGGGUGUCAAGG,1.92
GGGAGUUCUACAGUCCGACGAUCAGUCCUGUGCUACACAUCGUAUGUACCGAAUCGGGAAAAGGGAAAAGGGAAAAGGGGAAAGUAUUAUGUUACGCCGUUCGGAUCUGCACUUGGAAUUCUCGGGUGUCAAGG,-0.661
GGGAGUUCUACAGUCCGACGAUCCACAGACAACACGCACCCACACAGACACAGAGGGAAGGGGUUGGGAUGGGGACAGGGUGCACAGCAGGGCGGGGUAGGACCCCAGCCCUUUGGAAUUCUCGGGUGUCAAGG,-0.0675
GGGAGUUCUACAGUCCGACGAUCUGGGAGGUGGAUUUUGUUUAUUUUUUUAGCUCAUUUCCAGGGGUGGGAAUUUUUUUUUAAUAUGUGUCGUGAAUAAAGUUGUUUUUGAAAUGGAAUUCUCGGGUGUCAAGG,0.428
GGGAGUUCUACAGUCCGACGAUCUAACUUUAGAGGAGGAUCUGAUGGAUAUGGCAGUGGACGUGGAUUUGGGGAUGGCUAUAAUGGGUAUGGAGGAGGACCUGAAGGUGGCAAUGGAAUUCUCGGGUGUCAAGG,-0.106
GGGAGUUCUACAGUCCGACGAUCCAAGUCCUGUGCUACACAUCGUAUGUACCGAAUCGGAAAAAGGAAAAAGGAAAGGAAAGUAUUAUGUUACGCCGUUCGGAUCUGCACUUCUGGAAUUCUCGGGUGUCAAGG,-1.13
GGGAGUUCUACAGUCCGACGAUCUCCUGUGCUACACAUCGUAUGUACCGAAUCAAAUUUUUAAAUUUUUUUAAACCCCCAAAAAAGUAUUAUGUUACGCCGUUCGGAUCUGCAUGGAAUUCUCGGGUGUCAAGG,0.688
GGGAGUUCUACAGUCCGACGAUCCACAGACAACACGCACCCACACAGGCACAGAGGGAAGGGGUUGGGAUGGGGACAGGGUGCACAGCAGGGCGGGGUAGGACCCCAGCCCCUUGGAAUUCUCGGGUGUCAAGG,0.683
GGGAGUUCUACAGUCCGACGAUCCCUGUGCUACACAUCGUAUGUACCGAAUCGGGGAAAAAAAGGGGAAAAAGGGGUUUGGGGAAAGUAUUAUGUUACGCCGUUCGGAUCUGCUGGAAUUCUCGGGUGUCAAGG,-0.635
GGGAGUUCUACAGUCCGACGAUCACCAUGCAGGUGGGCAUCUUUGGGAAGUGGGGCAAGGGGGGGAUAGCGAGGGGGGUAACACUUUGGGAACAGGUGGUCCCAGGUCGUUUCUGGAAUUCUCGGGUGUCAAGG,0.891
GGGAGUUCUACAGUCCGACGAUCAUUUCUCAGUUGAAGGAUGCUUACACUCUUGUCCAUCUAGACCUCAAUUACUGUUUUUCAGGAAUGUCUGAUCACAGAUACGGGGAUGGUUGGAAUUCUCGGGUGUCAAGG,-2.31

# A few entries again (set 3):
Sequence,E-score
CGAGAGAC,-0.111
CAGTGGAC,-0.127
AGATATCC,0.135
GATAGAAA,0.109
CCAATGAC,-0.00231
CTTGGACC,-0.302
GATCAACA,0.105
CGTCTGTA,-0.0239
ACGAACCG,-0.207
ACTACCGG,-0.272
ACCGCATA,0.163
